Assay results collected from several papers.
± marks the error that the study gave.

[123I]c1cncc(OC[C@@H]2CCN2)c1  tissue/plasma ratio (SPECT; human, cerebellum; intravenous bolus plus infusion, 5.2 mCi; reference: tissue over plasma): 24.9
O[C@H]1CCCN[C@@H]1CCCn1cnc2c(Cl)c(Cl)ccc21  Tmax at steady state (healthy human volunteers, plasma; oral, 25 mg twice daily, day 14, median): 2 h
CC(C)C[C@H](NC(=O)CNC(=O)c1cc(Cl)ccc1Cl)B(O)O  terminal half-life (population PK; adult patients, plasma): 229 h
CN[C@@](C)(C[18F])C(=O)O  tissue uptake (SCID mouse MDA-MB-468 xenograft, liver; 120 min, post injection): 5 ± 0.9 %ID/g
CCCCCOc1ccc(-c2ccc(-c3ccc(C(=O)N[C@H]4C[C@@H](O)[C@@H](O)NC(=O)[C@@H]5[C@@H](O)[C@@H](C)CN5C(=O)[C@H]([C@@H](C)O)NC(=O)[C@H]([C@H](O)[C@@H](O)c5ccc(O)cc5)NC(=O)[C@@H]5C[C@@H](O)CN5C(=O)[C@H]([C@@H](C)O)NC4=O)cc3)cc2)cc1  Vss (population PK model; patients aged sample A to < sample B years; intravenous, 200 mg loading, 100 mg once daily, median, weight-corrected): 0.73 L/kg
CCOCN(C(=O)CCl)c1c(C)cccc1CC  remaining amount (LC-MS/MS; herbicide solution; 2 h, 4 °C, added: 254 nm UV exposure): 48.4 ± 34.1%
c1cc2ccc3cccc4ccc(c1)c2c34  tissue concentration (HPLC-fluorescence; Wistar rat, male, lung; oral, 4 mg/kg, 24 h): 14.2 ± 0.2 ng/g
CC[C@H](C)[C@H](NC(=O)[C@H](CO)NC(=O)[C@H](C)NC(=O)[C@@H](NC(=O)CNC(=O)[C@H](CO)NC(=O)[C@@H](NC(=O)[C@@H](NC(=O)[C@H](Cc1c[nH]cn1)NC(=O)[C@@H]1CCCN1C(=O)[C@@H](NC(=O)[C@H](CC(C)C)NC(=O)[C@H](CO)NC(=O)[C@H](CC(C)C)NC(=O)[C@@H](N)Cc1ccccc1)[C@@H](C)CC)[C@@H](C)CC)C(C)C)C(C)C)C(=O)N[C@@H](C)C(=O)N[C@@H](CCCCN)C(=O)N[C@@H](Cc1c[nH]cn1)C(=O)N[C@@H](Cc1ccccc1)C(N)=O  concentration found (UPLC-MS/MS; rat plasma; 0.05 µg/mL, three freeze-thaw cycles): 50 ng/mL
COc1ccc(C[C@@H]2NC(=O)[C@H]([C@@H](C)O)NC(=O)[C@@H]3[C@@H]4CCN3C(=O)[C@@H]3Cc5cn(c6ccc(F)cc56)CCCCCCN(Cc5ccc(cc5)CCNC(=O)[C@]5(C)CCCN5C2=O)C(=O)CCC(=O)N[C@@H](C)C(=O)N[C@H](CNC(=O)CCCCC[N+](C)(C)C)C(=O)N[C@@H](Cc2cccc(c2)CNC(=O)CO4)C(=O)N3)cc1  AUC(0-inf) (fasted healthy humans, plasma; oral, 200 mg single dose, with 1800 mg Labrasol, geometric mean): 1.26 µM·h
C=CC(=O)Nc1cc(Nc2nccc(-c3cn(C)c4ccccc34)n2)c(OC)cc1N(C)CCN(C)C  maximum tolerated dose (BALB/c nude mouse, female, EGFR exon insertion xenograft; 12 days, once daily): 20 mg/kg
CNC(=O)c1ccc(-c2cnn3ccc(C(=O)N(C)c4ccc(Cl)c(C(=O)OC)c4)cc23)cc1  AUC(0-8 h) (beagle dogs, both sexes, plasma; oral, 50 mg/kg/day, day 1, 2-week toxicology study): 111 ng·h/mL
O=C(CC(=O)c1ccccc1)c1ccccc1  Tmax (Sprague-Dawley rat, male, plasma; oral, 250 mg/kg, regular emulsion): 3.3 h

For quick reference, copied from above:
O=C(CC(=O)c1ccccc1)c1ccccc1  Tmax (Sprague-Dawley rat, male, plasma; oral, 250 mg/kg, regular emulsion): 3.3 h
CC(C)C[C@H](NC(=O)CNC(=O)c1cc(Cl)ccc1Cl)B(O)O  terminal half-life (population PK; adult patients, plasma): 229 h
